Assay results gathered from unrelated publications.
Compare with care: the assays were run in different laboratories. ± marks the error that the study gave.
cathepsin L: cathepsin L (Capra hircus, UniProt A0A452FFI6)
SLC18A3: Vesicular acetylcholine transporter (SLC18A3, Homo sapiens, UniProt Q16572)
Sequence of UniProt Q16572 (whole entry, looked up): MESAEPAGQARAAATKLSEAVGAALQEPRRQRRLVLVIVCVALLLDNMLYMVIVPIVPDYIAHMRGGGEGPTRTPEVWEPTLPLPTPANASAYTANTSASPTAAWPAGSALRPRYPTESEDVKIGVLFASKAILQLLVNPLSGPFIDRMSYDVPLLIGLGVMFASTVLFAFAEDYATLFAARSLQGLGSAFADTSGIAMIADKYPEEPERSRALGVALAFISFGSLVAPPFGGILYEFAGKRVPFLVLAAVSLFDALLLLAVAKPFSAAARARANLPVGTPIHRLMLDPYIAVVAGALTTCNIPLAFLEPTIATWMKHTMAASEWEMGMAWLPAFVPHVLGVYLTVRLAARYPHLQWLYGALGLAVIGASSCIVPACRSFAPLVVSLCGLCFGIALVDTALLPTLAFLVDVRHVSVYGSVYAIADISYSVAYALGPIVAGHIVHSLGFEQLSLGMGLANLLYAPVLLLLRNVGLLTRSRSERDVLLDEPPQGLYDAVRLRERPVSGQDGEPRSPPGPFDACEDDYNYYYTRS
CHRM2: Muscarinic acetylcholine receptor M2 (CHRM2, Homo sapiens, UniProt P08172)
Sequence of UniProt P08172 (whole entry, looked up): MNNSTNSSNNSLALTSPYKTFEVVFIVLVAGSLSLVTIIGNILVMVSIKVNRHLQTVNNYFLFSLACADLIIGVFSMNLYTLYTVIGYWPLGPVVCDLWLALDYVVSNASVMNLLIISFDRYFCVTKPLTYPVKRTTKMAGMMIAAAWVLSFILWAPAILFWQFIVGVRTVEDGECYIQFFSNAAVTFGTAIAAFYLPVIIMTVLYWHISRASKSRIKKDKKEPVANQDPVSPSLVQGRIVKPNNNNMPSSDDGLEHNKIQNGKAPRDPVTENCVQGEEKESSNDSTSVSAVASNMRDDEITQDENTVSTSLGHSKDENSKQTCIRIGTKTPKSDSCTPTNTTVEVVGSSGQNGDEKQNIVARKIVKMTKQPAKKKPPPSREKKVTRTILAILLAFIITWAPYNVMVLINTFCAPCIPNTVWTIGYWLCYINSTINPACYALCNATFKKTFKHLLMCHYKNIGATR
HTR6: 5-hydroxytryptamine receptor 6 (HTR6, Homo sapiens, UniProt P50406)
Sequence of UniProt P50406 (whole entry, looked up): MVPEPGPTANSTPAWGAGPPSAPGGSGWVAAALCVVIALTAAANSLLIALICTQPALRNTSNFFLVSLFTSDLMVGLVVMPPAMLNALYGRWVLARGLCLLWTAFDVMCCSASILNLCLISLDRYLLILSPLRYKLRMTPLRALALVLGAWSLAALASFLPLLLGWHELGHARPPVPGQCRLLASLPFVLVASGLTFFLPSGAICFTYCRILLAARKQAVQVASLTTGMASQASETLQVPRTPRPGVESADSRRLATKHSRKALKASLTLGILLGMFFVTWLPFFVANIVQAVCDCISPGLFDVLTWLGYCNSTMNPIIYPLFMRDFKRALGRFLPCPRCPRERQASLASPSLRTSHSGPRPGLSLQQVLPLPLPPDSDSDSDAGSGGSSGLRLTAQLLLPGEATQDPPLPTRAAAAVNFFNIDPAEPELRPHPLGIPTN
Uncharacterized protein: Uncharacterized protein (Trypanosoma cruzi, UniProt Q4DRC3)
Sequence of UniProt P41143 (whole entry, looked up): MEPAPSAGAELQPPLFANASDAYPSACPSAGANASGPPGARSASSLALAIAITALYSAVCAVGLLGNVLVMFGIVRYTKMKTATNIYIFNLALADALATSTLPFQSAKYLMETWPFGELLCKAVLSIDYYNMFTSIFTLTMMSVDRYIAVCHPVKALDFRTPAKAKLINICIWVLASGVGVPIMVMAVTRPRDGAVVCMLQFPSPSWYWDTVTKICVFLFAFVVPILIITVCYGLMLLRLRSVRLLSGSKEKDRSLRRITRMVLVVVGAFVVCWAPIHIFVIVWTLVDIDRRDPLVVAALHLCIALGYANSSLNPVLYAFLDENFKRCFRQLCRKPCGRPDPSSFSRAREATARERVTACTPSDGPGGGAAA
Sequence of UniProt Q66K64 (whole entry, looked up): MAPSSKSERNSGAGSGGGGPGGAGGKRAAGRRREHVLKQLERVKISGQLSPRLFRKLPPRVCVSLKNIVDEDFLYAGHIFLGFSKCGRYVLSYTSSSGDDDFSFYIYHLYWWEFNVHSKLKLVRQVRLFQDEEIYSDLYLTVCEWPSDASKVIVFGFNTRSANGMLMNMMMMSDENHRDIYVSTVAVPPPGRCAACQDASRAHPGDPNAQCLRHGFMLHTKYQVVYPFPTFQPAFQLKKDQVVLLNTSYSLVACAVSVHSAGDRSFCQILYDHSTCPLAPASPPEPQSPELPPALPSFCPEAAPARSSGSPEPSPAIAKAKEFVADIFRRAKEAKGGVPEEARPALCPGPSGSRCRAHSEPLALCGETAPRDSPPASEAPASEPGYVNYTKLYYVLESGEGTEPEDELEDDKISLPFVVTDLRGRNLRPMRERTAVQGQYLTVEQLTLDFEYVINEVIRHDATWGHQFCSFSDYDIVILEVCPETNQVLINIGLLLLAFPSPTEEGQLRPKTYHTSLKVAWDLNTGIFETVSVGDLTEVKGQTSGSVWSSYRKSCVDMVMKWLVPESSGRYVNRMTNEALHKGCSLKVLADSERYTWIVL
Sequence of UniProt P55211 (whole entry, looked up): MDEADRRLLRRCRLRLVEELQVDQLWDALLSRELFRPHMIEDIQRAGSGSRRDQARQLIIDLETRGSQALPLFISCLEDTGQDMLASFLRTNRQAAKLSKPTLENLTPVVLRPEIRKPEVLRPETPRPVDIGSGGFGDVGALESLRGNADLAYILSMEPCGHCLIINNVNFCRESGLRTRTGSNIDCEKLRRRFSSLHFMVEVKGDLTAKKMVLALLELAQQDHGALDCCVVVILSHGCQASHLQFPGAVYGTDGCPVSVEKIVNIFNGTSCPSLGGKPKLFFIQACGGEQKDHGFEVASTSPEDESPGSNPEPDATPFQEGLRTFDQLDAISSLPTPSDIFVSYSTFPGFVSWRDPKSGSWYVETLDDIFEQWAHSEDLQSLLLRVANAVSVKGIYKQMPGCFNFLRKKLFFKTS
Sequence of UniProt P17706 (whole entry, looked up): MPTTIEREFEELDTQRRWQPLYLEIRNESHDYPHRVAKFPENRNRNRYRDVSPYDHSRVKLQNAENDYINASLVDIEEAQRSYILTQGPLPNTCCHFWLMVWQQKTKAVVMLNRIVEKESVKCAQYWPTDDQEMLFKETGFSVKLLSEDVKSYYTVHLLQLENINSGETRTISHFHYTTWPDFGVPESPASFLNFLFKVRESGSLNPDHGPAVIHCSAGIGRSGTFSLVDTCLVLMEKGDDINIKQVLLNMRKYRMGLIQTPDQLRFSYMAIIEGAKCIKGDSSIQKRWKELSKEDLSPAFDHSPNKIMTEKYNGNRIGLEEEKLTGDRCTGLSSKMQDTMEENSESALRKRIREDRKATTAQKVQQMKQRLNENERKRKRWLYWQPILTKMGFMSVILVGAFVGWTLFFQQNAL
Sequence of UniProt Q9NSD7 (whole entry, looked up): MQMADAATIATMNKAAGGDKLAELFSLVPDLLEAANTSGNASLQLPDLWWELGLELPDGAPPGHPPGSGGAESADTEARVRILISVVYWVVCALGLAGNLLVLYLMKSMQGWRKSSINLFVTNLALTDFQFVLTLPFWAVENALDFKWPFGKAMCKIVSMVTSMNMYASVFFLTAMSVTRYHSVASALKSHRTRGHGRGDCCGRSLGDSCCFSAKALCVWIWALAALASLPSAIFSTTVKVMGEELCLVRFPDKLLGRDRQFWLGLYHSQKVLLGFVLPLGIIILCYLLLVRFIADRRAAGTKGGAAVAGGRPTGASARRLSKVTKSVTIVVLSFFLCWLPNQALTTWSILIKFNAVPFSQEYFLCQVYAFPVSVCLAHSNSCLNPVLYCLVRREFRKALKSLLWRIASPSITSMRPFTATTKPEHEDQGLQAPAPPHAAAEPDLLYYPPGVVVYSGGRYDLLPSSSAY
Sequence of UniProt Q16719 (whole entry, looked up): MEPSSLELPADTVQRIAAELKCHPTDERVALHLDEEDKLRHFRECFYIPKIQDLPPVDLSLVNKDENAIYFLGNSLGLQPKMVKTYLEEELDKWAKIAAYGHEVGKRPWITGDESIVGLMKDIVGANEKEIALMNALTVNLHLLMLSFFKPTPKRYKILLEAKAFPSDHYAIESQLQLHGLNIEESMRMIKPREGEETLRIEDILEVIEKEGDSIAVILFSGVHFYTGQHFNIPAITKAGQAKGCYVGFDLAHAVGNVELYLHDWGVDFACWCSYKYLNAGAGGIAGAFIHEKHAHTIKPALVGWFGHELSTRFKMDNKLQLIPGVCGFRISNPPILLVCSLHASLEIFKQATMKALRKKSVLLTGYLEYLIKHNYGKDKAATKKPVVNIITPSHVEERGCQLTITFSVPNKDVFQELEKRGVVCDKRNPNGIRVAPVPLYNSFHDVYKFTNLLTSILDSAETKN
Sequence of UniProt P51692 (whole entry, looked up): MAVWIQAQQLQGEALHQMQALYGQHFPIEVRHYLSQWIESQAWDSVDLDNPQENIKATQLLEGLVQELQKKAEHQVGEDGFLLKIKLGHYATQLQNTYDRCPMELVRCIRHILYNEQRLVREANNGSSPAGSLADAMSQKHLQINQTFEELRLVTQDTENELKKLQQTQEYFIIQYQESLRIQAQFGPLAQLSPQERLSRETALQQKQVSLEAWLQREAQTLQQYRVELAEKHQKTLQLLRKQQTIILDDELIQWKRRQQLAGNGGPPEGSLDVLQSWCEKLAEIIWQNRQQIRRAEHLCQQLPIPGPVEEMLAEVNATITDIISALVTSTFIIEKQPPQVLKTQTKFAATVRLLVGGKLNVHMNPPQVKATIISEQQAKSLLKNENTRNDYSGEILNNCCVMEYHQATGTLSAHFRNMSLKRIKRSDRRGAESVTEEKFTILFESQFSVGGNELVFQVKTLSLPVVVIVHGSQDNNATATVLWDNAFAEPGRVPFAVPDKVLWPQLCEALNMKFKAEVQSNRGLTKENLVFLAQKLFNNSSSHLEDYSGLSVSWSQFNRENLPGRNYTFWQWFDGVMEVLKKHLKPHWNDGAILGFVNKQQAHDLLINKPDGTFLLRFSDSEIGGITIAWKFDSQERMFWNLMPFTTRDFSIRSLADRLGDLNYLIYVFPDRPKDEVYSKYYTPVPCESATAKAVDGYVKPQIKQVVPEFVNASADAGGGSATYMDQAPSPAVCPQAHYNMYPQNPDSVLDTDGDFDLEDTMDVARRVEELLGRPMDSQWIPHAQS

SMILES	target	test	system	setting	Ki [µM]
CC[C@H](C)[C@@H]1NC(=O)[C@H](Cc2ccccc2)NC(=O)[C@H](CCC(=O)O)NC(=O)[C@H](CCCNC(=N)N)NC(=O)CNC(=O)[C@@H](NC(=O)[C@H](CC(C)C)NC(=O)[C@H](CCCNC(=N)N)NC(=O)[C@@H](NC(=O)CNC(=O)[C@H](Cc2ccc(O)cc2)NC(=O)[C@@H]2CCCN2C(=O)[C@H](C)NC(=O)[C@H](C)NC(=O)[C@@H](N)CCCNC(=N)N)C(C)C)CSSC[C@@H]2NC(=O)[C@@H](NC(=O)[C@H](CO)NC(=O)[C@H](CO)NC(=O)[C@H](CO)NC(=O)[C@H](CC(C)C)NC(=O)CNC(=O)[C@H](C)NC(=O)[C@H](CC(C)C)NC(=O)[C@@H](NC(=O)[C@@H](N)CC(=O)O)C(C)C)CSSC[C@H](NC(=O)CNC(=O)[C@H](Cc3c[nH]c4ccccc34)NC(=O)[C@H](CCCCN)NC2=O)C(=O)N[C@@H](CO)C(=O)N[C@@H](CCCCN)C(=O)N[C@@H](CO)C(=O)N[C@@H](CCC(=O)O)C(=O)N[C@@H]([C@@H](C)CC)C(=O)N[C@@H](CO)C(=O)N[C@@H](CO)C(=O)N[C@@H](CC(C)C)C(=O)N[C@H](C(=O)O)CSSC[C@@H](C(=O)NCC(=O)NCC(=O)N[C@@H](CO)C(=O)N[C@@H](CCCNC(=N)N)C(=O)N[C@@H](Cc2c[nH]c3ccccc23)C(=O)O)NC(=O)[C@H]([C@@H](C)O)NC(=O)[C@H](Cc2ccccc2)NC(=O)[C@H]([C@@H](C)CC)NC(=O)[C@H](C(C)C)NC(=O)[C@H](C)NC(=O)[C@H](CCCNC(=N)N)NC1=O	RXFP3 (Homo sapiens, UniProt Q9NSD7)	ligand displacement			0.0417
NC(=O)N/N=C(\C=C\c1ccccc1)c1ccccc1	cathepsin L	enzyme activity, competitive inhibitor	goat liver enzyme	pH 6.0, together with: Z-Phe-Arg-4-methoxy-β-naphthylamide	0.00036 ± 4e-06
C=C(C)[C@@H]1CC=C(C)CC1	chemosensory protein 5 (Mythimna separata, UniProt A0A5H2NAD7)	binding, 1-NPN displacement		pH 5.0	5.71
O=C(c1ccc(NCCF)cc1)C1CCN(C2Cc3ccccc3CC2O)CC1 (single isomer, unassigned; (-))	SLC18A3	ligand displacement, radioligand			0.00031
CCCCCCCCCCCCCCCCC1=C[C@@H](C(=O)O)[C@H]2C(=O)C(C(=O)OC)=C(CCCCCCCCCCCCCCCC)[C@H]2[C@H]1C(=O)OC	PTPN2 (Homo sapiens, UniProt P17706)	enzyme activity, inhibitor, absorbance			2.2
CC(=C(C#N)C#N)c1ccc2cc(N(C)CCF)ccc2c1	Alpha-synuclein, filaments (SNCA, Homo sapiens, UniProt P37840)	radioligand displacement	α-synuclein filaments	together with: [3H]Me-BTA-1 4 nM	0.21
CC(C)C(=O)N[C@@H](C)C(=O)N[C@@H](CCCNC(=N)N)C(=O)N[C@@H](C)C(N)=O	WDR5 (Homo sapiens, UniProt P61964)	ligand displacement, FP			0.04
O=C(NS(=O)(=O)c1ccc(Br)s1)c1ccc(Cl)cc1Cl	DDB1- and CUL4-associated factor 15 (Homo sapiens, UniProt Q66K64)	binding			> 50
COc1ccc(CCCN[C@@H]2CCC[C@H]2CN[C@@H]2CCC[C@H]2CNCCCCN[C@H]2CCC[C@@H]2CN)cc1	KDM1A (Homo sapiens, UniProt O60341)	enzyme activity, inhibitor			2.2
CCC[C@@H]1[C@H](O)[C@@H](O)[C@H](O)[C@@H](CO)N1C(=S)NCc1ccc(C(F)(F)F)cc1	beta-glucosidase (almond)	competitive inhibitor		together with: p-nitrophenyl glucopyranoside	> 2000
CC(=O)N[C@@H](CC(=O)O)C(=O)N[C@H](C(=O)N1CCC[C@H]1C(=O)N[C@H](C=O)CC(=O)O)C(C)C	Caspase-9 (CASP9, Homo sapiens, UniProt P55211)	enzyme activity, inhibitor, fluorescence		pH 7	0.479
CCC(=O)NCc1cc(C(=O)NCCN2CCN(CCCCC3CCN(CC(=O)N4c5ccccc5NC(=O)c5ccccc54)CC3)CC2)cc(C(=O)NCCN2CCN(CCCCC3CCN(CC(=O)N4c5ccccc5NC(=O)c5ccccc54)CC3)CC2)c1	CHRM2	ligand displacement, radioligand			0.000575
CNC(=O)[C@@]12C[C@@H]1[C@@H](n1cnc3c(NCc4cccc(Cl)c4)nc(C#Cc4cccc(Cl)c4)nc31)[C@H](O)[C@@H]2O	OPRD1 (Homo sapiens, UniProt P41143)	ligand displacement, radioligand			5.87
OC[C@H](OCc1ccccc1Cl)[C@H](O)C[S@@+]1C[C@@H](O)[C@H](O)[C@H]1CO	GAA (Homo sapiens, UniProt P10253)	enzyme activity, inhibitor, absorbance		pH 5.2	0.03
CN1CCC=C(c2nsnc2OCCCN2CCN(CCCCC3CCN(CC(=O)N4c5ccccc5NC(=O)c5ccccc54)CC3)CC2)C1	CHRM2	ligand displacement, radioligand			7.24e-05
CC(=O)Nc1ccc(-n2cnc(C(=O)NCc3cccs3)c2)nc1	Alpha-synuclein, fibril (SNCA, Homo sapiens, UniProt P37840)	ligand displacement, radioligand			0.388

SMILES	target	test	system	setting	Ki [µM]
CCS[C@H]1CC[C@@H](N(C)CC(=O)Nc2ccc(C)c(C)c2)C1	DRD3 (Homo sapiens, UniProt P35462)	ligand displacement, radioligand		cell membranes	> 10
NCc1cc(C(=O)NCCN2CCC(OC(=O)C(c3ccccc3)c3ccccc3)CC2)cc(C(=O)NCCN2CCN(CCCCC3CCN(CC(=O)N4c5ccccc5NC(=O)c5ccccc54)CC3)CC2)c1	CHRM2	ligand displacement, radioligand			0.000692
NC(CC(=O)c1cccc(O)c1)C(=O)O (centres unmarked)	Kynureninase (Homo sapiens, UniProt Q16719)	enzyme activity, inhibitor			0.005
O=C(CCCCc1ccc(OP(=O)(O)O)c(OP(=O)(O)O)c1)N1CCCCC1	Signal transducer and activator of transcription 5B, SH2 (STAT5B, Homo sapiens, UniProt P51692)	ligand displacement, FP			0.73
CCCCCCCCN1[C@H](CCC)[C@H](O)[C@@H](O)[C@H](O)[C@H]1CO	beta-glucosidase (almond)	competitive inhibitor		together with: p-nitrophenyl glucopyranoside	> 2000
O=C(/C=C/c1ccccc1)c1ccccc1	cathepsin L	enzyme activity, competitive inhibitor	goat liver enzyme	pH 6.0, together with: Z-Phe-Arg-4-methoxy-β-naphthylamide	0.01515 ± 0.0001
OC[C@@H]1[C@@H](O)[C@H](O)[C@@H](O)c2nccn21	sweet almond β-glucosidase	inhibitor		pH 5.2, together with: 2,4-dinitrophenyl β-D-glucopyranoside	0.067 ± 0.004
Clc1cc(CN2CCCCC2)ccc1OCCCN1CCN(c2cccc3sccc23)CC1	HTR6	ligand displacement, radioligand			0.375
COc1cccc(/C=C/C(=N/NC(N)=O)c2ccccc2)c1	cathepsin L	enzyme activity, competitive inhibitor	goat liver enzyme	pH 6.0, together with: Z-Phe-Arg-4-methoxy-β-naphthylamide	0.00471 ± 2e-05
CC1=CC(C)=[N+]2C1=C(CCCCCN1CCC(O)(c3ccccc3)CC1)c1c(C)cc(C)n1[B-]2(F)F	Sodium- and chloride-dependent glycine transporter 2 (Homo sapiens, UniProt Q9Y345)	cell-free assay, mass spectrometry			1.15
CN(Cc1c[nH]c2c(=O)[nH]cnc12)[C@H](CO)CCP(=O)(O)O	Uncharacterized protein	IMP formation, uncompetitive inhibitor		pH 8.3, 37 °C, together with: hypoxanthine 120 µM, PRPP 1 mM	0.7 ± 0.1
C#CCNC(=O)C(CC(C)(C)F)NC(c1ccc(-c2ccc(S(C)(=O)=O)cc2)cc1)C(F)(F)F (centres unmarked)	Cathepsin K (CTSK, Homo sapiens, UniProt P43235)	enzyme activity, inhibitor, fluorescence			0.21
O=C(c1ccc(F)cc1)C1CCN(C2Cc3c(O)cccc3CC2O)CC1 (racemic)	SLC18A3	ligand displacement, radioligand			0.00464
COc1cc(CN2CCOCC2)ccc1OCCCN1CCN(c2cccc3sccc23)CC1	HTR6	ligand displacement, radioligand			0.342
O=C1Nc2ccccc2N(C(=O)CN2CCC(CCCCN3CCC(N4CCC(n5c(=O)[nH]c6ccccc65)CC4)CC3)CC2)c2ccccc21	CHRM2	ligand displacement, radioligand			0.000759
O=c1[nH]c(=O)c2ncn([C@@H]3O[C@H](COP(=O)(O)O)[C@@H](O)[C@H]3O)c2[nH]1	Uncharacterized protein	enzyme activity, inhibitor		product inhibition, noncompetitive Kis, together with: xanthine 120 µM, PRPP variable	33 ± 5

Repeated from above:
SMILES	target	test	system	setting	Ki [µM]
OC[C@@H]1[C@@H](O)[C@H](O)[C@@H](O)c2nccn21	sweet almond β-glucosidase	inhibitor		pH 5.2, together with: 2,4-dinitrophenyl β-D-glucopyranoside	0.067 ± 0.004
Clc1cc(CN2CCCCC2)ccc1OCCCN1CCN(c2cccc3sccc23)CC1	HTR6	ligand displacement, radioligand			0.375
COc1cccc(/C=C/C(=N/NC(N)=O)c2ccccc2)c1	cathepsin L	enzyme activity, competitive inhibitor	goat liver enzyme	pH 6.0, together with: Z-Phe-Arg-4-methoxy-β-naphthylamide	0.00471 ± 2e-05
CC1=CC(C)=[N+]2C1=C(CCCCCN1CCC(O)(c3ccccc3)CC1)c1c(C)cc(C)n1[B-]2(F)F	Sodium- and chloride-dependent glycine transporter 2 (Homo sapiens, UniProt Q9Y345)	cell-free assay, mass spectrometry			1.15
CN(Cc1c[nH]c2c(=O)[nH]cnc12)[C@H](CO)CCP(=O)(O)O	Uncharacterized protein	IMP formation, uncompetitive inhibitor		pH 8.3, 37 °C, together with: hypoxanthine 120 µM, PRPP 1 mM	0.7 ± 0.1
